Measurements gathered from unrelated publications.
Each line is one published result; not all experiments were run side by side. ± marks the error that the study gave.
SCTR: Secretin receptor (SCTR, Homo sapiens, UniProt P47872)
POLB I260M: DNA polymerase beta (POLB, Homo sapiens, UniProt P06746, I260M)
MAPT: Microtubule-associated protein tau (MAPT, Homo sapiens, UniProt P10636)
T1: G-quadruplex RNA, benzofuranyl uridine in loop (Homo sapiens); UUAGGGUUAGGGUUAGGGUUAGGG
T2: ssRNA FMR1 5' UTR CGG repeat (Homo sapiens); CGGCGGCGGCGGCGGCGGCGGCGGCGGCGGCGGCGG

Compound = COc1cccc(-c2cc(C(F)(F)F)nc(NCc3ccccc3)n2)c1; target = SCTR; test = cAMP, agonist; quantity = Emax; result = 17%
Compound = COc1cc2c(cc1OC)C(c1ccc(F)cc1F)N(CCCOc1ccc(CCC(=O)O)cc1)CC2 (centres unmarked); target = Peroxisome proliferator-activated receptor gamma (PPARG, Homo sapiens, UniProt P37231, H477A); test = agonist, reporter gene; system = CHO; setting = 10 µM; scale = reference: wild type; quantity = transactivation; result = inhibited
Compound = Cc1cn([C@H]2C[C@H](O)[C@@H](COP(=O)(O)OP(=O)(O)C(Cl)(Cl)P(=O)(O)O)O2)c(=O)[nH]c1=O; target = POLB I260M; test = substrate, single turnover kinetics; quantity = kpol/Kd; result = 32000 ± 15000 M⁻¹ s⁻¹
Compound = CC[C@H](C)[C@H](NC(=O)[C@H](CCC(N)=O)NC(=O)[C@@H](NC(=O)[C@@H]1CCCN1[C@@H]1CN(C(=O)[C@H](CCCCN)NC(=O)[C@H](CC(N)=O)NC(=O)[C@@H](NC(=O)[C@@H](NC(=O)[C@H](CCC(N)=O)NC(=O)[C@@H](N)C(C)C)[C@@H](C)CC)[C@@H](C)CC)CC[C@H]1NS(=O)(=O)c1ccc(C)cc1)C(C)C)C(=O)N[C@H](C(=O)N[C@@H](Cc1ccc(O)cc1)C(=O)N[C@@H](CCCCN)C(N)=O)C(C)C; target = MAPT; test = inhibitor, ThT fluorescence; setting = 5-fold over protein, added: heparin; quantity = aggregation inhibition; result = inhibited
Compound = COc1ccc(-c2cc(C(F)(F)F)nc(NCc3ccc(F)cc3)n2)cc1OC; target = SCTR; test = increase of tracer binding, TR-FRET; system = HEK293 membranes; setting = added: Fluo-Sec 6 nM; quantity = Emax; result = 155 ± 11%
Compound = CC(C)C[C@@H](NC(=O)[C@@H](CC(=O)O)NC(=O)c1ccc(S(N)(=O)=O)cc1)C(=O)N[C@H](CC(=O)O)C(=O)N[C@H](CC(=O)O)C(=O)N[C@H](Cc1ccc(O)cc1)C(N)=O; target = Carbonic anhydrase 2 (CA2, Homo sapiens, UniProt P00918); test = esterase activity, inhibitor; scale = reference: 4-aminobenzenesulfonamide; quantity = potency increase; result = ~17 fold
Compound = COC1CCC(N(C(=O)C2CCC(C)CC2)c2cc(C3=CCCCC3)sc2C(=O)O)CC1 (centres unmarked); target = Probable UDP-N-acetylglucosamine--peptide N-acetylglucosaminyltransferase SPINDLY, 3 TPR truncation (SPY, Arabidopsis thaliana, UniProt Q96301); test = inhibitor; setting = 3 to 100 µM, 90 min, added: GDP-fucose 50 µM; quantity = O-fucosylation; result = inhibited
Compound = O=C(Nc1cnc2ccccc2c1)c1ccc(-c2ccc(Cl)cc2)o1; target = Nuclear receptor subfamily 4 group A member 2, ligand binding domain (Homo sapiens, UniProt P43354); test = reporter gene, agonist, Gal4-Nurr1 hybrid reporter; system = HEK-293T; setting = 3 µM, crude library product; scale = reference: vehicle (0.1% DMSO); quantity = activation; result = > 1.5 fold
Compound = CCC1CC2C(C)=CC3C(=O)CCCC3C=CC(C)=CC2C(=O)O1 (centres unmarked); target = Microtubule-associated protein tau, R3 peptide oligomers (MAPT, Homo sapiens, UniProt P10636); test = dot blot; setting = 500 µM; quantity = R3 tau oligomer reduction; result = 48.3%
Compound = CNc1ccccc1C(=O)O[C@H]1C[C@H](n2cnc3c(N)ncnc32)O[C@@H]1COP(=O)(O)OP(=O)(O)O; target = Unconventional myosin-Va (Gallus gallus, UniProt Q02440, D297C/G292C/I296C/S293C/V295G); test = stopped-flow FRET, linear fit intercept; setting = 10 °C, added: MgCl2 2 mM; quantity = dissociation rate constant; result = 1.65 ± 0.13 s⁻¹
Compound = CC[C@H](C)[C@H](NC(C)=O)C(=O)N[C@@H](C)C(=O)N[C@@H](CCC(=O)O)C(=O)N[C@@H](CCC(N)=O)C(=O)N[C@@H](CC(C)C)C(=O)N[C@@H](CCCNC(=N)N)C(=O)N[C@@H](CCCNC(=N)N)C(=O)N[C@H](C(=O)NCC(=O)N[C@@H](CC(=O)O)C(=O)N[C@@H](CCCNC(=N)N)C(=O)N[C@@H](Cc1ccc(O)cc1)C(N)=O)[C@@H](C)CC; target = Induced myeloid leukemia cell differentiation protein Mcl-1 (MCL1, Homo sapiens, UniProt Q07820); test = DELFIA displacement; setting = added: biotinylated BIM BH3 peptide; scale = reference: compound over reference; quantity = IC50 ratio; result = ~25
Compound = CCN(CCCC[C@H](NC(=O)[C@H](Cc1ccc(OC)c(OC)c1)NC(=O)[C@H](C)NC(=O)[C@H](CC1CCCCC1)NC(=O)c1ccc(Br)c(N)c1)C(=O)N[C@@H](CO)C(=O)OC)C(C)C; target = Chromobox protein homolog 7 (Homo sapiens, UniProt O95931); test = binding; system = HEK-293T cell lysate; setting = concentration not given; quantity = competition of probe pulldown; result = inhibited
Compound = NCCOc1cc(C(=O)Nc2cc(OCCN)c3ccccc3n2)nc(C(=O)Nc2cc(OCCN)c3ccccc3n2)c1; target = T1, G-quadruplex RNA, benzofuranyl uridine in loop (Homo sapiens); test = fluorescence titration; setting = pH 7.5, 20 °C, NaCl 100 mM, apparent, parallel G-quadruplex; quantity = Kd; result = 0.268 µM
Compound = CCOC(=O)C(CS)NCCNC(CS)C(=O)OCC (centres unmarked); target = Carbamate kinase (Giardia intestinalis, UniProt A8BB85); test = enzyme activity, inhibitor, luminescence, ATP detection; system = Giardia lamblia; quantity = maximal inhibition; result = 79.4%
Compound = CC[C@H](C)[C@H](NC(=O)[C@H](Cc1ccccc1)NC(=O)[C@@H](NC(=O)[C@@H](NC(=O)[C@H](CC(C)C)NC(=O)[C@H](CCCCN)NC(=O)[C@@H](N)CCCCN)[C@@H](C)CC)[C@@H](C)O)C(=O)N[C@@H](CC(C)C)C(=O)N[C@@H](CCCCN)C(=O)N[C@@H](CCCCN)C(=O)N[C@H](C(=O)N[C@@H](CCCNC(=N)N)C(=O)N[C@@H](CCC(=O)O)C(=O)N[C@@H](CCCCN)C(=O)N[C@@H](CCCCN)C(=O)N[C@@H](CCCCN)C(=O)N[C@@H](CCC(=O)O)C(=O)N[C@@H](CS)C(=O)N[C@@H](CC(C)C)C(=O)N[C@H](C(=O)O)C(C)C)[C@@H](C)O; target = voltage-gated sodium channel, mouse; test = resurgent current, blocker; system = mouse CA3 neurons; setting = kinetic model; scale = reference: Kd at -10 mV over -30 mV; quantity = Kd ratio; result = 3 fold
Compound = Cc1ccc(N2CCN(C(=O)c3noc(-c4ccc(F)cc4)n3)CC2)cc1; target = Potassium voltage-gated channel subfamily KQT member 2 (KCNQ2, Homo sapiens, UniProt O43526); test = potassium current, activator, whole-cell patch clamp; system = CHO, stable; setting = 20 µM; scale = reference: current before compound; quantity = current fold increase; result = 1.03 ± 0.07
Compound = O=C(O)CCCCC(=O)NNC(=O)c1ccccn1; target = Egl nine homolog 1 (EGLN1, Homo sapiens, UniProt Q9GZT9); test = non-denaturing ESI-MS; setting = 15 µM, PHD2 15 µM, added: Fe(II) 30 µM; quantity = complex formation with PHD2; result = no binding
Compound = Cc1nnc(Nc2ccc(O)cc2)[nH]c1=O; target = DNA dC->dU-editing enzyme APOBEC-3A (Homo sapiens, UniProt P31941); test = binding, 1H CPMG NMR; quantity = signal attenuation; result = 44.9 ± 7.9%
Compound = CCCN(CC(=O)N(CCC)CC(=O)N(CCC)CC(=O)N(CCC)CC(=O)N(CCC)CC(=O)N(CCC)CC(=O)N(CC(N)=O)Cc1cn(CCCNC(=O)CCCOc2cccc(-c3nc4ccc(-c5nc6ccc(N7CCN(C)CC7)cc6[nH]5)cc4[nH]3)c2)nn1)C(=O)CNCc1cn(CCCNC(=O)CCCOc2cccc(-c3nc4ccc(-c5nc6ccc(N7CCN(C)CC7)cc6[nH]5)cc4[nH]3)c2)nn1; target = T2, ssRNA FMR1 5' UTR CGG repeat (Homo sapiens); test = protein displacement, competitor, TR-FRET; quantity = IC50; result = 23 µM
Compound = [11CH3]c1ccc2nc(C3CCC3)n(-c3ccc4[nH]ncc4c3)c2n1; target = Voltage-dependent calcium channel gamma-8 subunit (Rattus norvegicus, UniProt Q8VHW5); test = radiotracer, in vitro autoradiography; system = rat, hippocampus brain sections; setting = dose not given, added: blocker 1 µM; quantity = specific binding; result = 86%
Compound = S=C(Nc1ccc(Cl)cc1)Nc1cccc2[nH]ccc12; target = MAPT; test = fibril formation, ThT fluorescence; setting = 100 µM, added: tau 10 µM; quantity = inhibition; result = 67%
Compound = O=C([O-])CN(CCN(CC(=O)[O-])Cc1cc(CCC(=O)NCCCCCC(=O)NCCCC[C@H](NC(=O)N[C@@H](CCC(=O)O)C(=O)O)C(=O)O)ccc1O)Cc1cc(CCC(=O)O)ccc1[O-].[68Ga+3]; target = Glutamate carboxypeptidase 2 (FOLH1, Homo sapiens, UniProt Q04609); test = PET/CT; system = prostate cancer patients, primary prostate cancer lesions; scale = reference: primary lesions over liver; quantity = tumour-to-normal tissue ratio; result = 6.62 ± 6.05
Compound = CC(P(=O)(O)O)P(=O)(O)OP(=O)(O)OCC1OC(n2cnc3c(=O)[nH]c(N)nc32)CC1O (mixture of isomers); target = POLB I260M; test = nucleotide incorporation, substrate, single turnover kinetics; setting = dG misincorporation opposite A; quantity = kpol/Kd; result = 2.5 ± 1.2 M⁻¹ s⁻¹
Compound = O[C@@H]1[C@@H](O)[C@H](O[C@@H]2OC[C@@H](O)[C@H](O)[C@H]2O)C[C@H]2O[C@@H]12; target = Exo-1,4-beta-xylosidase xlnD (xlnD, Emericella nidulans, UniProt Q5BAS1); test = covalent inhibitor; system = Aspergillus nidulans; setting = pH 4.5, ambient, added: 4MU-β-D-xyloside; quantity = kinact; result = 0.0435 s⁻¹
Compound = CNc1ccccc1C(=O)O[C@H]1[C@@H](O)[C@H](n2ccc(=O)[nH]c2=O)O[C@@H]1COP(=O)(O)OP(=O)(O)O; target = ADCY5 (Canis lupus, UniProt P30803); system = Sf9 membranes; scale = reference: NDP over NTP; quantity = potency loss on γ-phosphate deletion; result = 5 to 30 fold
Compound = COC(=O)C1=CNC=C(C(=O)OC)C1c1ccc(F)c(C(F)(F)F)c1; target = Intermediate conductance calcium-activated potassium channel protein 4 (KCNN4, Homo sapiens, UniProt O15554, T250S/V275A); test = ion current, whole-cell patch clamp; setting = pore mutant; scale = reference: mutant over wild type; quantity = potency fold shift; result = ~333 fold
Compound = N#Cc1cccc(-c2ccc(=O)n(Cc3cccc(-c4ncc(OCC5CCN(CC(=O)N6CCN(c7ccc8c(c7)C(=O)N(C7CCC(=O)NC7=O)C8=O)CC6)CC5)cn4)c3)n2)c1 (centres unmarked); target = Hepatocyte growth factor receptor (MET, Homo sapiens, UniProt P08581); test = degrader; system = EBC-1; quantity = Dmax; result = 99%
Compound = Nc1nc2c(ncn2[C@H]2C[C@H](O)[C@@H](COP(=O)(O)OP(=O)(O)[C@@H](F)P(=O)(O)O)O2)c(=O)[nH]1; target = DNA polymerase beta (POLB, Homo sapiens, UniProt P06746, R183A); test = substrate, pre-steady-state kinetics; setting = incorporation opposite dC in gapped DNA; quantity = kpol; result = 0.29 s⁻¹
Compound = Cc1cn(C2CC(O)C(COP(=O)(O)OP(=O)(O)C(F)P(=O)(O)O)O2)c(=O)[nH]c1=O (mixture of isomers); target = POLB I260M; test = nucleotide incorporation rate, substrate, single-turnover kinetics; system = single-nucleotide gapped DNA; setting = 37 °C, I260M, correct incorporation, added: dTTP opposite template A; quantity = kpol; result = 5.6 ± 1.7 s⁻¹
Compound = COc1ccc(CNc2nc(-c3ccc(OC)cc3)cc(C(F)(F)F)n2)cc1; target = SCTR; test = cAMP, agonist; quantity = Emax; result = 17%
Compound = CCCCCCCC/C=C\CCCCCCCC(=O)OC[C@@H]1OCC=C[C@H]1OP(=O)(O)S (some centres unmarked); target = Lysophosphatidic acid receptor 2 (LPAR2, Homo sapiens, UniProt Q9HBW0); test = agonist, TGFα shedding; quantity = Emax; result = 28%
Compound = N#Cc1cc(C(=O)OCC[18F])c(C(F)(F)F)nc1N1CCN(C(=O)Cc2ccccc2)CC1; target = P2Y purinoceptor 12 (P2ry12, Mus musculus, UniProt Q9CPV9); test = PET; system = mouse, acute kainate epilepsy, ipsilateral hippocampus; setting = 60 min; quantity = target to normal ratio; result = 1.81 ± 0.22
